Measured values of several laboratories.
Lines come from different studies, so protocols differ. ± marks the error that the study gave.
TGFBR1: TGF-beta receptor type-1 (TGFBR1, Homo sapiens, UniProt P36897)
Chain of UniProt P36897 (whole entry, looked up): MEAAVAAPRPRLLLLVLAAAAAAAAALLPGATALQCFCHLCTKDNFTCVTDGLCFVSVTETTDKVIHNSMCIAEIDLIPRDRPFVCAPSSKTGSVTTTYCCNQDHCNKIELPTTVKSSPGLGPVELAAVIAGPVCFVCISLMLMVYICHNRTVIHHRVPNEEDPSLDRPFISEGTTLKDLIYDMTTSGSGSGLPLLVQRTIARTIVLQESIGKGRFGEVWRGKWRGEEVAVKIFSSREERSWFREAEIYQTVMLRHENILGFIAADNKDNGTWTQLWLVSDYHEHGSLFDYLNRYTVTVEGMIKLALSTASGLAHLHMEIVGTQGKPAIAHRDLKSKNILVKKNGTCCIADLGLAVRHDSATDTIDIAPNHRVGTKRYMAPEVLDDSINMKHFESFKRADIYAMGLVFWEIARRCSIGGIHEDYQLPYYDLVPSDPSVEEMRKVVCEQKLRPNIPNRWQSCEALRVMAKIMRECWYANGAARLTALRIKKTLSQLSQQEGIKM
TYMS: Thymidylate synthase (TYMS, Homo sapiens, UniProt P04818)
Chain of UniProt P04818 (whole entry, looked up): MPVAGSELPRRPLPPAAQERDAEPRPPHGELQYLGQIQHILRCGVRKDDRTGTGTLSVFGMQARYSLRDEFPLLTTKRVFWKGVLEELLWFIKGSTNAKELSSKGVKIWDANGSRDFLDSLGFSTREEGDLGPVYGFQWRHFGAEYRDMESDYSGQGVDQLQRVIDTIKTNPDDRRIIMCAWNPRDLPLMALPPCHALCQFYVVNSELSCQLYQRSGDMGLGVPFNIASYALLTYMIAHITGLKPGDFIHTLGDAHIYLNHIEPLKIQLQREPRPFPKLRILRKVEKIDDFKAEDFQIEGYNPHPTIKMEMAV
Protein lin-28 homolog A: Protein lin-28 homolog A (Mus musculus, UniProt Q8K3Y3)
Chain of UniProt Q8K3Y3 (whole entry, looked up): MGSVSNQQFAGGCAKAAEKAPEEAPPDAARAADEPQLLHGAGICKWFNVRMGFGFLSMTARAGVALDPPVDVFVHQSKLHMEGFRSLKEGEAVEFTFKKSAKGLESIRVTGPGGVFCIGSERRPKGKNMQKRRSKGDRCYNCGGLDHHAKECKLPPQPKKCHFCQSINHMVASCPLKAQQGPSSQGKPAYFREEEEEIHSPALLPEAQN
DCN1-like protein 1 PONY domain: DCN1-like protein 1, PONY domain (Homo sapiens, UniProt Q96GG9)
Chain of UniProt O43914 (whole entry, looked up): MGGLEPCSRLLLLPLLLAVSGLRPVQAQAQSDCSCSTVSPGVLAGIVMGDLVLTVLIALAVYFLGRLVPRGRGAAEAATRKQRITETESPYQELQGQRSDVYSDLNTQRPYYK
Chain of UniProt Q9P0L9 (whole entry, unmodified, looked up): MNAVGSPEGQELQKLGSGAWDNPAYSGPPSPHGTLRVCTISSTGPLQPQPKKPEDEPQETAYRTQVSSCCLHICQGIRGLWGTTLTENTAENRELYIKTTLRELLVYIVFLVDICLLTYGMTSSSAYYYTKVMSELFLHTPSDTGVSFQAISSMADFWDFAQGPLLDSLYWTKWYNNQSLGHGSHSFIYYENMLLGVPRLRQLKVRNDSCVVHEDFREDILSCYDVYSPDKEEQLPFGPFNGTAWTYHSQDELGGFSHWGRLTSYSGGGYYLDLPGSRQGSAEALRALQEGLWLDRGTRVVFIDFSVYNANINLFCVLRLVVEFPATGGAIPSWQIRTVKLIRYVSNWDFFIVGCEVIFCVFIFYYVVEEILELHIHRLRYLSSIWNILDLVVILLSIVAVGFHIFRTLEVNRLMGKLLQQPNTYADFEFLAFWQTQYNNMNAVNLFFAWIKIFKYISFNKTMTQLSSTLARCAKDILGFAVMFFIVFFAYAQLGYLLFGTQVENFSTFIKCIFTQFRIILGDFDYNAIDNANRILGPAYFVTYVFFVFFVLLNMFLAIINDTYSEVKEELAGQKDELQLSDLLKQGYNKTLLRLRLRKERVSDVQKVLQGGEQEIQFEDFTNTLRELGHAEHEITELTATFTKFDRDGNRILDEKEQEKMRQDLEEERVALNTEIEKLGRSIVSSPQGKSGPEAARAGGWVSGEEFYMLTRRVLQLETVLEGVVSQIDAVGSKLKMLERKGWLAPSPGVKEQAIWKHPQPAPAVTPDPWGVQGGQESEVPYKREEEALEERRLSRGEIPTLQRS
Chain of UniProt P04070 (whole entry, looked up): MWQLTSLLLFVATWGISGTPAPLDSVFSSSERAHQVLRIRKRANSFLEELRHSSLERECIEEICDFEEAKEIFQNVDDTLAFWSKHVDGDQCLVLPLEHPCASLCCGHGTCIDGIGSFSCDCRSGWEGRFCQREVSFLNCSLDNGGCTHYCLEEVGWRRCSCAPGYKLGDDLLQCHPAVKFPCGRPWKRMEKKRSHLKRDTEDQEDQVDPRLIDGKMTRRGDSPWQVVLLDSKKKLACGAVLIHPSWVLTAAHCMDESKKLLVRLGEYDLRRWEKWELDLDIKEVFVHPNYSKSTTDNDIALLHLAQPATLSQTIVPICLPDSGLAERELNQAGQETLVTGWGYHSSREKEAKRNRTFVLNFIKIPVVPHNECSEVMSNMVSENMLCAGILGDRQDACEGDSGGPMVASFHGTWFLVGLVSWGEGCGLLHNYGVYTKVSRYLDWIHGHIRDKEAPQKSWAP
Chain of UniProt P10599 (whole entry, looked up): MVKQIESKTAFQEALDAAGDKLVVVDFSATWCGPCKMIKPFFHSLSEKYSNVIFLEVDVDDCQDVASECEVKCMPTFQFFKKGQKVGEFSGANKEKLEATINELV
Chain of UniProt O95747 (whole entry, looked up): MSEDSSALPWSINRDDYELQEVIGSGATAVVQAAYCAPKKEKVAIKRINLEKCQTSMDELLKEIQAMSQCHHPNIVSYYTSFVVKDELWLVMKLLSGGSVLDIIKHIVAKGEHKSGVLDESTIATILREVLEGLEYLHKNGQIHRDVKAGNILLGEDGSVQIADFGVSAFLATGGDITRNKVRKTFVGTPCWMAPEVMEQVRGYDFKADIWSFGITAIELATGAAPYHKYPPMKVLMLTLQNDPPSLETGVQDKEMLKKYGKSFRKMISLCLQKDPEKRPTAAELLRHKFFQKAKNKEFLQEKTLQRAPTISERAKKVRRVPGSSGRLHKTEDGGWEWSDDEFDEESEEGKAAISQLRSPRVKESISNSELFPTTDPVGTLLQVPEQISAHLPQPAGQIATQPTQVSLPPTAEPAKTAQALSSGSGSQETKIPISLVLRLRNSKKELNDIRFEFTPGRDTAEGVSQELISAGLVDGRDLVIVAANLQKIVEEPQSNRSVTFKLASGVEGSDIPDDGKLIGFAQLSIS
Chain of UniProt P06396 (whole entry, unmodified, looked up): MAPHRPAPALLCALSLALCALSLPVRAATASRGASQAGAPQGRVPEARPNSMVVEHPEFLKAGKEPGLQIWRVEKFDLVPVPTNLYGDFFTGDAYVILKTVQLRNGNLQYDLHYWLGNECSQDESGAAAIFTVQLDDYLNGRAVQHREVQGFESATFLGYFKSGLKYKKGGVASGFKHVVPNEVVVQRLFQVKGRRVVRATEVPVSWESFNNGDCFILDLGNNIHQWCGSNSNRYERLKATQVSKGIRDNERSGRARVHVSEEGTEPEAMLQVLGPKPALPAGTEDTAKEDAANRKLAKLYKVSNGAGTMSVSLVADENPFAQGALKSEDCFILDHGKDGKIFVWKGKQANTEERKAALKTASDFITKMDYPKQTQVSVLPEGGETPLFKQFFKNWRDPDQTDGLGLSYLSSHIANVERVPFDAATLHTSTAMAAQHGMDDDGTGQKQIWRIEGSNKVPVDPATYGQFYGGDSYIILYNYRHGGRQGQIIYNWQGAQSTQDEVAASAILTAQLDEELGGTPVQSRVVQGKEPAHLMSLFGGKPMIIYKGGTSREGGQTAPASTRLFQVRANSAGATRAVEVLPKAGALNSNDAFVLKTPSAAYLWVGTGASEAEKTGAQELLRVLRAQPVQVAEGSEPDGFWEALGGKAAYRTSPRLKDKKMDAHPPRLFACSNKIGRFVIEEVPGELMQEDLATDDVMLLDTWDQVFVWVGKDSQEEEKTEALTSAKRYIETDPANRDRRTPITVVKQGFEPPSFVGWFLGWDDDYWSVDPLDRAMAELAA
Chain of UniProt P03951 (whole entry, looked up): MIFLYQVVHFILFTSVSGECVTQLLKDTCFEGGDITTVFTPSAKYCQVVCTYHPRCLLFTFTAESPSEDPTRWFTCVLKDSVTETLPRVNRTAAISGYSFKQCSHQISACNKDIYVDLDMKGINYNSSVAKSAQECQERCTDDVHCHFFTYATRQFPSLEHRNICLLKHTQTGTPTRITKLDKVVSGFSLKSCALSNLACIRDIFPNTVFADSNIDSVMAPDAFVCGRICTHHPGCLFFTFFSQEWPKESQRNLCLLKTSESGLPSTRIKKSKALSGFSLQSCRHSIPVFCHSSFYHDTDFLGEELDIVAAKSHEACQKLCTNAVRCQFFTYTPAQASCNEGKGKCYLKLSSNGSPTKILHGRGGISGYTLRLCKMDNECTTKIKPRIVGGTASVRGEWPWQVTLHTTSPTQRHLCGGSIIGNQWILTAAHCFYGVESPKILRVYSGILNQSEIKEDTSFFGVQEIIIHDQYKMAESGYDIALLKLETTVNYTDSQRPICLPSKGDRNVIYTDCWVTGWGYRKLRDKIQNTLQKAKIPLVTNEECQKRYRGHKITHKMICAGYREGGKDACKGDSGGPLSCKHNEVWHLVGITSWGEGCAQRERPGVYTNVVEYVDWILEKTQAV
Chain of UniProt Q16566 (whole entry, looked up): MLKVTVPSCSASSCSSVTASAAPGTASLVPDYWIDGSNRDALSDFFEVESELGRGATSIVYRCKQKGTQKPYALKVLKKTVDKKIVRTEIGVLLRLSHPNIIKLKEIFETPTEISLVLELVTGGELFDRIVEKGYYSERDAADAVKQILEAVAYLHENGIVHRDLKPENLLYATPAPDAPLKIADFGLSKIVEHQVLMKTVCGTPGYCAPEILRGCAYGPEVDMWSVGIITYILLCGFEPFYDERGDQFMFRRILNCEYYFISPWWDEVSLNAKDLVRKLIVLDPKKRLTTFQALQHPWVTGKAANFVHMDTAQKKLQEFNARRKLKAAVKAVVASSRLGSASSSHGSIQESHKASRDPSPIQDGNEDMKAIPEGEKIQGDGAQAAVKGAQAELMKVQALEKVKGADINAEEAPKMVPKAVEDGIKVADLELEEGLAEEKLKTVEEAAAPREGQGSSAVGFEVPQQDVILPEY

| SMILES | tested on | assay | system | conditions | scale | measurement | result |
| --- | --- | --- | --- | --- | --- | --- | --- |
| Cc1cccc(C)c1-c1nc(-c2ccc(F)cc2)c(-c2ccncc2)[nH]1 | TGFBR1 | binding, LanthaScreen kinase binding |  |  |  | IC50 | 0.0735 ± 0.0043 µM |
| Nc1ncnc2c1ncn2[C@@H]1O[C@H](COP(=O)(O)OP(=O)(O)OP(=O)(O)O)[C@@H](O)[C@H]1O | P2Y receptor rat | binding, radioligand binding |  |  |  | IC50 | 0.019 µM |
| CCCCOc1cc(C(=O)NCCN(CC)CC)c2ccccc2n1 | PKD2L1 (Homo sapiens, UniProt Q9P0L9, F549I) | ion current |  |  |  | IC50 | 68.9 µM |
| Nc1nc(N)c2nc(CNCc3ccc(Oc4ccccc4)cc3)cnc2n1 | TYMS | inhibitor |  |  |  | IC50 | > 100 µM |
| Cc1cc(=O)[nH]c(SCc2cccc3ccccc23)n1 | Protein lin-28 homolog A |  |  |  |  | IC50 | 33.9 µM |
| C/C(=C\CNc1ncnc2[nH]cnc12)CO | Gelsolin, peptide (GSN, Homo sapiens, UniProt P06396, D214Y) |  |  |  |  | IC50 | 9 ± 7 µM |
| COCc1nn(Cc2ccc(Cn3ccccc3=O)cc2)cc1C(=O)NCc1nccc(Cl)c1F | Coagulation factor XI (F11, Homo sapiens, UniProt P03951) |  |  |  |  | IC50 | > 40 µM |
| C=CC(=O)NCc1cccc(CN(C(=O)Nc2cccc(C(F)(F)F)c2)C2CCN(C(C)CCC)CC2)c1 (stereo not shown) | DCN1-like protein 1 PONY domain | binding, inhibitor, TR-FRET |  | 24 h, racemic mixture |  | IC50 | 0.066 ± 0.038 µM |
| COc1cc(C(=O)NCC2(N(C)C)CCCC2)cc(OC)c1OCc1ccccc1 | glycine transporter 2 (Xenopus tropicalis, UniProt A0A7D9NK84) | glycine uptake, inhibitor | HEK293F | with: 10 nM [3H]glycine |  | IC50 | 0.436 µM |
| Fc1ccc(-c2nc(-c3ccccc3)[nH]c2-c2ccncc2)cc1 | TGFBR1 | binding, LanthaScreen kinase binding |  |  |  | IC50 | 0.731 ± 0.107 µM |
| Cn1cc(-c2ccc(-c3cncc(Cl)c3N3CCC4(CCNC4=O)CC3)cc2)cn1 | COLO 205 | gene expression, microarray, refers to: IFI6 mRNA |  | concentration not given, 6 h | reference: untreated cells | log2 fold change | 2.45 |
| CCc1ccc(NC(=O)Nc2c[nH]c3ccccc23)cc1 | TYRO protein tyrosine kinase-binding protein (TYROBP, Homo sapiens, UniProt O43914) | split luciferase reporter | human cells | 6 h, treatment 48 h after induction, with: doxycycline induction |  | IC50 | 7.2 ± 3.1 µM |
| O=C(CSc1n[nH]c(-c2ccccc2Cl)n1)c1ccc(O)c(O)c1 | Protein lin-28 homolog A |  |  |  |  | IC50 | 22.4 µM |
| CN1CCN(c2ccc(Nc3ncc4cc(C#N)c(=O)n(C5CCCC5)c4n3)cc2)CC1 | Calcium/calmodulin-dependent protein kinase type IV (CAMK4, Homo sapiens, UniProt Q16566) |  |  |  |  | IC50 | 1.8 µM |
| NC(=O)c1cccc2c1O/C(=C\c1ccc(C(=O)N3CCCN(c4cccnc4)CC3)s1)C2=O | Poly [ADP-ribose] polymerase 1 (PARP1, Homo sapiens, UniProt P09874) | inhibitor |  |  |  | IC50 | 0.065 µM |
| COc1cc(Oc2ccc(CNCc3cnc4nc(N)nc(N)c4n3)cc2)cc(OC)c1OC | TYMS | inhibitor |  |  |  | IC50 | > 100 µM |
| CC(C)C[C@H](NC(=O)C[C@H](O)[C@H](CC(C)C)NC(=O)[C@H](Cc1c[nH]cn1)NC(=O)CNC(=O)[C@@H](NC(=O)[C@H](C)NC(=O)[C@H](Cc1c[nH]c2ccccc12)NC(=O)[C@H](CCC(N)=O)NC(=O)[C@@H](Cc1ccccc1)NC(=O)COCCOCCNC(=O)CCC(C(=O)O)N1CCN(CC(=O)O)CCN(CC(=O)O)CCN(CC(=O)O)CC1)C(C)C)C(N)=O (stereo partly shown) [lutetium-177 labelled] |  |  | BALB/c nu/nu mice, muscle | intravenous, 500 pmol, 1 h, with: PA 300 µg |  | tissue uptake | 0.09 ± 0.04 %ID/g |
| O=[N+]([O-])c1ccccc1-c1nc(-c2ccc(F)cc2)c(-c2ccncc2)[nH]1 | TGFBR1 | binding, LanthaScreen kinase binding |  |  |  | IC50 | 0.0534 ± 0.0119 µM |
| COc1cc(O)c2c(c1)C(=O)c1cc(C)cc(O)c1C2=O | HK-2 co-cultured with HepaRG | MTT |  | 133.33 µM, 48 h | reference: untreated control | viability | 76.8 ± 5.78% |
| CCCCCC/C=C1\C=C(C(F)(F)F)c2cc3c(cc21)OCO3 | Thioredoxin (TXN, Homo sapiens, UniProt P10599) | insulin reduction, inhibitor |  | 1 h, 37 °C, preincubation |  | IC50 | no inhibition |
| CC[C@@H]1[C@H](F)C(=O)N[C@@H]1COc1nccc2cc(C(N)=O)c(OC)cc12 | Serine/threonine-protein kinase OSR1 (OXSR1, Homo sapiens, UniProt O95747) | ATP probe binding, KiNativ profiling, refers to: OSR1 Lys2 probe site | THP-1 cell lysate |  |  | IC50 | > 5 µM |
| CCCC(C)N1CCC(N(Cc2ccccc2CNC(=O)CCl)C(=O)Nc2cccc(C(F)(F)F)c2)CC1 (stereo not shown) | DCN1-like protein 1 PONY domain | binding, inhibitor, TR-FRET |  | 24 h, racemic mixture |  | IC50 | 0.222 ± 0.087 µM |
| COc1cc2c(c(OC)c1OC)-c1c(cc3c(c1OC)OCO3)CC(C)C(C)C2 (stereo not shown) | CYP3A, rat | poziotinib metabolism to M2, inhibitor | rat liver microsomes, 0.3 mg/mL | 30 min, with: poziotinib 5 µM |  | IC50 | 6.97 µM |
| N=C(N)c1ccc(OCCCCCOc2ccc(C(=N)N)cc2)cc1 | Vitamin K-dependent protein C (PROC, Homo sapiens, UniProt P04070) |  |  |  |  | IC50 | 1.1 ± 0.01 µM |
| O=C(O)c1cc(O)c2c(c1)C(=O)c1cccc(O)c1C2=O | HK-2 co-cultured with HepaRG | MTT |  | 66.67 µM, 48 h | reference: untreated control | viability | 45.8 ± 4.09% |

A few entries again:
| SMILES | tested on | assay | system | conditions | scale | measurement | result |
| --- | --- | --- | --- | --- | --- | --- | --- |
| CCCCCC/C=C1\C=C(C(F)(F)F)c2cc3c(cc21)OCO3 | Thioredoxin (TXN, Homo sapiens, UniProt P10599) | insulin reduction, inhibitor |  | 1 h, 37 °C, preincubation |  | IC50 | no inhibition |
| C/C(=C\CNc1ncnc2[nH]cnc12)CO | Gelsolin, peptide (GSN, Homo sapiens, UniProt P06396, D214Y) |  |  |  |  | IC50 | 9 ± 7 µM |
